Measured values pooled from the literature.
“And” joins repeats or separate records; there may be more than shown. Numbers after ± are the reported error. Converted amounts (≈) assume the structure as drawn.

Structure (SMILES)	cell line	test	conditions	scale	measurement	result
Cl.NCc1ccc2c(c1)CN(C1CCC(=O)NC1=O)C2=O (centres unmarked)	Huh-7	CellTiter-Glo	concentration not given, 72 h	–	minimum viability	< 50% and 35.2%
CC(=O)OC[C@H]1O[C@@H]([Se]c2ccc([N+](=O)[O-])cc2[N+](=O)[O-])[C@H](OC(C)=O)[C@@H](OC(C)=O)[C@@H]1OC(C)=O	THP-1 macrophages (PMA-differentiated)	WST-1	25 µM, 24 h	–	viability	71.8 ± 16.8%
Cc1nc2ccc(F)cc2c2c1C1(C)CC2c2cc(F)ccc2N1 (centres unmarked)	Huh-7	cell growth or viability, MTT	–	–	CC50	> 400 µM
COC1OC(C)C(OS(=O)(=O)O)C(OC2OC(C)C(OS(=O)(=O)O)C(OC3OC(C)C(OS(=O)(=O)O)C(OC4OC(C)C(OS(=O)(=O)O)C(OC5OC(C)C(OS(=O)(=O)O)C(OC6OC(C)C(OS(=O)(=O)O)C(OC7OC(C)C(OS(=O)(=O)O)C(OC8OC(C)C(OS(=O)(=O)O)C(OC9OC(C)C(OS(=O)(=O)O)C(OC%10OC(C)C(OS(=O)(=O)O)C(OS(=O)(=O)O)C%10OS(=O)(=O)O)C9OS(=O)(=O)O)C8OS(=O)(=O)O)C7OS(=O)(=O)O)C6OS(=O)(=O)O)C5OS(=O)(=O)O)C4OS(=O)(=O)O)C3OS(=O)(=O)O)C2OS(=O)(=O)O)C1OS(=O)(=O)O (centres unmarked)	RAW264.7	CCK-8	concentration not given, 24 h, medium concentration	relative to: untreated cells	viability	120% and 106% and 118%
CN(C)C(=O)c1ccnc(N2Cc3cn(Cc4ccc(F)cc4F)nc3C2)n1	MDCK-MDR1	–	–	relative to: B-A over A-B permeability	efflux ratio	1.4
CCCc1c(O)c(O)cc(C(=O)O)c1COC1OC(CO)C(O)C(O)C1O (centres unmarked)	HeLa, SW480 and HCT-116	CCK-8	80 µM, 24 h	–	cytotoxicity	not toxic
N#Cc1cccc(-c2ccc(=O)n(Cc3cccc(-c4ncc(OCC5CCN(CC(=O)N6CCN(c7ccc8c(c7)C(=O)N(C7CCC(=O)NC7=O)C8=O)CC6)CC5)cn4)c3)n2)c1 (centres unmarked)	Caco-2	transwell monolayer	2 µM, 120 min, pH 7.4, 0.1% DMSO, added: tariquidar 5 µM	–	efflux ratio	0.88
COc1ccc2ncc(F)c(C[C@H](O)[C@H]3OC[C@H](NCc4ccc(Cl)c(Cl)c4)CO3)c2c1	THP-1	cytotoxicity	–	–	IC50	17.2 µg/mL (≈ 35.7 µM)
CC(=O)OC[C@H]1O[C@@H]([Se]SC[C@H]2O[C@@H]3OC(C)(C)O[C@@H]3[C@H]3OC(C)(C)O[C@H]32)[C@H](OC(C)=O)[C@@H](OC(C)=O)[C@@H]1OC(C)=O	THP-1	cell growth or viability, WST-1	24 h	–	CC50	~10 µM
Cc1ccc2c(c1)nc(NC(=O)c1cccc(C(F)(F)F)c1)n2[C@H]1CC[C@H](N)CC1	NIH 3T3	cytotoxicity	4 days, mean value	–	CC50	4.38 µM
COc1ccc2nccc(CC[C@H]3OC[C@H](NCc4ccc(Cl)c(Cl)c4)CO3)c2c1	THP-1	cytotoxicity	–	–	IC50	31.2 µg/mL (≈ 69.7 µM)
CN1CCCNC(=O)c2cccc(c2)C(=O)NCCCN(C)CCCNc2cccc3c2C(=O)c2cccc(c2C3=O)NCCC1	NHEK	CCK-8	0.15 µM, 48 h	relative to: untreated	viability	77.9%
CCc1c(-c2ccc3[nH]ncc3c2)cnc(N)c1-c1ccc(O)cc1	CHP-212	SRB	0.3906 µM	–	viability	102% and 104%
Cc1cc(C)nc(NC(=S)N2CCN(Cc3ccc(C(F)(F)F)cc3)CC2)c1	MDCK-MDR1	–	–	–	Papp B-A	5.7 ± 1 ×10⁻⁶ cm/s
CC(=O)OC[C@H]1O[C@@H]([Se]C(C)=O)[C@H](OC(C)=O)[C@@H](OC(C)=O)[C@@H]1OC(C)=O	THP-1 macrophages (PMA-differentiated)	WST-1	25 µM, 24 h	–	viability	105 ± 4.2%
COC1OC(C)C(OS(=O)(=O)O)C(OC2OC(C)C(OS(=O)(=O)O)C(OC3OC(C)C(OS(=O)(=O)O)C(OC4OC(C)C(OS(=O)(=O)O)C(OC5OC(C)C(OS(=O)(=O)O)C(OC6OC(C)C(OS(=O)(=O)O)C(OC7OC(C)C(OS(=O)(=O)O)C(OC8OC(C)C(OS(=O)(=O)O)C(OS(=O)(=O)O)C8OS(=O)(=O)O)C7OS(=O)(=O)O)C6OS(=O)(=O)O)C5OS(=O)(=O)O)C4OS(=O)(=O)O)C3OS(=O)(=O)O)C2OS(=O)(=O)O)C1OS(=O)(=O)O (centres unmarked)	NIH 3T3	CCK-8	concentration not given, 24 h, low concentration	relative to: untreated cells	viability	105% and 103% and 102%
COc1ccc2ncc(F)c(C[C@H](O)[C@H]3OC[C@H](NCc4ccc(Cl)c(Cl)c4)CO3)c2n1	THP-1	cytotoxicity	–	–	IC50	21.4 µg/mL (≈ 44.4 µM)
COC1OC(C)C(OC2OC(C)C(OS(=O)(=O)O)C(OC3OC(C)C(OC4OC(C)C(OS(=O)(=O)O)C(OC5OC(C)C(OC6OC(C)C(OS(=O)(=O)O)C(OC7OC(C)C(OS(=O)(=O)O)C(OS(=O)(=O)O)C7OS(=O)(=O)O)C6OS(=O)(=O)O)C(OS(=O)(=O)O)C5OS(=O)(=O)O)C4OS(=O)(=O)O)C(OS(=O)(=O)O)C3OS(=O)(=O)O)C2OS(=O)(=O)O)C(OS(=O)(=O)O)C1OS(=O)(=O)O (centres unmarked)	RAW264.7	CCK-8	concentration not given, 24 h, medium concentration	relative to: untreated cells	viability	127% and 110% and 117%
COc1ccc2ncc(F)c(C[C@H](O)[C@H]3OC[C@H](NCc4ccc5c(c4)OCCO5)CO3)c2c1	THP-1	cytotoxicity	–	–	IC50	27.3 µg/mL (≈ 58 µM)
S=c1n(-c2ccccc2)c2c3ccccc3nc3[n+]2[n]1[Ir-3]12([S]3)([c]3ccc4ccccc4c3-c3sc4ccccc4[n+]31)[c]1ccc3ccccc3c1-c1sc3ccccc3[n+]12	A549	ICP-MS	10 µM, 24 h, 37 °C	–	cellular iridium uptake	0.44 ± 0.08 fmol/cell

A few entries again:
Structure (SMILES)	cell line	test	conditions	scale	measurement	result
COC1OC(C)C(OS(=O)(=O)O)C(OC2OC(C)C(OS(=O)(=O)O)C(OC3OC(C)C(OS(=O)(=O)O)C(OC4OC(C)C(OS(=O)(=O)O)C(OC5OC(C)C(OS(=O)(=O)O)C(OC6OC(C)C(OS(=O)(=O)O)C(OC7OC(C)C(OS(=O)(=O)O)C(OC8OC(C)C(OS(=O)(=O)O)C(OS(=O)(=O)O)C8OS(=O)(=O)O)C7OS(=O)(=O)O)C6OS(=O)(=O)O)C5OS(=O)(=O)O)C4OS(=O)(=O)O)C3OS(=O)(=O)O)C2OS(=O)(=O)O)C1OS(=O)(=O)O (centres unmarked)	NIH 3T3	CCK-8	concentration not given, 24 h, low concentration	relative to: untreated cells	viability	105% and 103% and 102%
COC1OC(C)C(OS(=O)(=O)O)C(OC2OC(C)C(OS(=O)(=O)O)C(OC3OC(C)C(OS(=O)(=O)O)C(OC4OC(C)C(OS(=O)(=O)O)C(OC5OC(C)C(OS(=O)(=O)O)C(OC6OC(C)C(OS(=O)(=O)O)C(OC7OC(C)C(OS(=O)(=O)O)C(OC8OC(C)C(OS(=O)(=O)O)C(OC9OC(C)C(OS(=O)(=O)O)C(OC%10OC(C)C(OS(=O)(=O)O)C(OS(=O)(=O)O)C%10OS(=O)(=O)O)C9OS(=O)(=O)O)C8OS(=O)(=O)O)C7OS(=O)(=O)O)C6OS(=O)(=O)O)C5OS(=O)(=O)O)C4OS(=O)(=O)O)C3OS(=O)(=O)O)C2OS(=O)(=O)O)C1OS(=O)(=O)O (centres unmarked)	RAW264.7	CCK-8	concentration not given, 24 h, medium concentration	relative to: untreated cells	viability	120% and 106% and 118%
